Results collected from several papers.
Compare with care: the assays were run in different laboratories. Several values in a cell are separate wells, animals, samples, runs or records. ± marks the error that the study gave.

COc1cc2ncnc(Nc3ccc(Oc4ccccc4)c(C)c3C)c2cc1OC  viability (NCI-H2087 (BRAF L597V); resazurin; 3 µM, 72 h, added: trametinib; relative to: DMSO): 81.9%
O=C(O)CNC(=O)C(=O)O  viability (HBL-1; 0.5 µM, 120 h): 124%
Nc1cccc2c1C(=O)N(C1CCC(=O)NC1=O)C2=O (stereo not drawn)  viability (bone marrow CD138+ myeloma cells; XTT; 0.4 µM, mean of three patients): 98%
Cc1cn([C@@H]2O[C@H](CO)[C@@H](O)[C@H]2O)c(=O)nc1N  viability (HBL-1; 0.5 µM, 120 h): 111%
CC(C)NCC(O)c1ccc(O)c(O)c1 (stereo not drawn)  sarcomere length (ventricular cardiomyocytes, C57BL/6 mouse; dose not given, 0.588 s): 1.63 µm
COc1ccc(Oc2ccc(-c3c(C)[nH]c(C)c(Cl)c3=O)cc2)cc1  IC50 (Plasmodium yoelii; 17XL; 384-well): 154 ± 56 nM
O=P(O)(O)C(O)(Cn1ccnc1)P(=O)(O)O  viability (MDA-MB-231; AlamarBlue; 3.8 µM, 72 h; relative to: control): 97 ± 6%
COc1cc2ncnc(Nc3ccc(Oc4ccccc4)cc3C)c2cc1OC  viability (NCI-H2087 (BRAF L597V); resazurin; 0.1 µM, 72 h, added: trametinib 0 nM): 101%
Clc1ccc2c(NN=Cc3cccs3)ccnc2c1  IC50 (Plasmodium yoelii; 17XL; 384-well): > 20000 nM
CC(C)(C)OC(=O)CN(Cc1ccc(Cl)cc1)Cc1ccc([N+](=O)[O-])s1  viability (HBL-1; 1 µM, 120 h): 103%
Nc1cccc2c1CN(C1CCC(=O)NC1=O)C2=O (stereo not drawn)  viability (bone marrow CD138+ myeloma cells; XTT; 1.6 µM, phenol red-free RPMI): 17%
COc1ccc(-n2nc(C(C)=O)s/c2=N\N=C(/C)c2ccc(NC(=O)c3ccc(Cl)cc3)cc2)cc1  viability (HepG2; 1.25 µM): 5.72%
CN1C(=O)C2(NN=C(c3ccccc3)S2)c2cc(Br)ccc21 (stereo not drawn)  viability (TNBC cell lines; MTT; 10 µM): active
Cc1cccc(-c2[nH]c(CNc3ccccc3F)nc2-c2ccc3ncnn3c2)n1  viability (MM1.S; XTT; 2.5 µM): 12% and 17% and 13%
Nc1ccccc1NC(=O)CCCCCCC(=O)Nc1ccccc1  viability (HBL-1; 0.1 µM, 120 h): 101%
COc1ccc(-n2nc(C(C)=O)s/c2=N\N=C(/C)c2ccc(NC(=O)c3ccccc3)cc2)cc1  viability (MCF7; 0.078 µM): 88.6%
O=C(/C=C/c1ccc(O)cc1)c1ccc(O)cc1O  viability (HBL-1; 1 µM, 120 h): 100%
COc1ccc(-n2nc(C(C)=O)s/c2=N\N=C(/C)c2ccc(NC(=O)c3ccc(C)cc3)cc2)cc1  viability (HepG2; 0.625 µM): 17.8%

For quick reference, copied from above:
Cc1cccc(-c2[nH]c(CNc3ccccc3F)nc2-c2ccc3ncnn3c2)n1  viability (MM1.S; XTT; 2.5 µM): 12% and 17% and 13%
Nc1ccccc1NC(=O)CCCCCCC(=O)Nc1ccccc1  viability (HBL-1; 0.1 µM, 120 h): 101%
COc1ccc(-n2nc(C(C)=O)s/c2=N\N=C(/C)c2ccc(NC(=O)c3ccccc3)cc2)cc1  viability (MCF7; 0.078 µM): 88.6%
